Measurements gathered from unrelated publications.
Every numbered part comes from another study and shows a few of its results, in no order. Substitutions count along the parent as printed.

Study 1 — technique: RNA Bind-n-Seq; form: RNA; medium: in vitro; concentration: 365 nM; baseline: no-protein control; reading: higher = stronger binding
Target: RNA binding protein fox-1 homolog 2, RRM domain, GST-SBP tag (RBFOX2, Homo sapiens, UniProt O43251-10, residues 100-194)
Notes: natural RNA segment, single round, ends assumed
Shared flanks, not repeated: GGGAGUUCUACAGUCCGACGAUC … UGGAAUUCUCGGGUGCCAA
Construct (chain): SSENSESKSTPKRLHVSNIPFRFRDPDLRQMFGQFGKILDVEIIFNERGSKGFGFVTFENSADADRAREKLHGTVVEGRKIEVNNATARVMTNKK
Strand | RBNS enrichment (R)
CUUGCCAGUGGUGUGCCGGGCGCGGGUCCUGUCUGGCGGCGGCCUGUCGUCUCCAGGUGCUAACUCCUGCCACCGCGCGGUGCUCACCCACGUCUGUUCGCGCGCUCGCC | 0.29
CAGCAGGGGUCAUGCCAAGUCAGGCCUGUAGCUCCUAAUAGGGGCCUAUUUCUACUUUUAUUUUGUAUUUCUGGUCUGUGAAAACAAUUUAAUAAAGGGAAAUGACUUUG | 0.919
CUCAUGUGAAGUGAUCUUGAUUCUUCUGAGGUUUUAAACUAAAAUGUUGCUUCCUGUUUUAGUGUCUGAACUCUGACAGGGUGACAGGGACCUUGCUGGUGUAGUCUUUU | 0.858
GCCGACCAGAGGAAGUCUCUCUGCAUGUUCUAGUGUUAGUAACUAAUUUUUAUAUAGCUAAUGUAGGAUAAAGUAGAGUGCAUUAAGACAAUAUUGUAACCCCACUCUAG | 0.669
GUAUCACGUUUUCAGCCAUGUUGUGUAAGAGACCUGCUUUCAAGUGUGGUUGUAAAAGCAAGCCCAGGAAAGGUGACCUCAUUCUCACGGACUGUGCUGUGCAGCUUUCC | 0.474
CAGAGGGUUCUGUUUUUCCCAUUCCCUUCUGGACUUUAAAUAAAUAUUUAAAACUGAGCAAUGGAAAGACGAGUCUGUGGUUUGAUGCUUCUUCACGGUGCUCAAAGGCA | 0.511
UCACUGGGUAGUAUCACACAGGUGUGUCUGGGUUGAGAUGUUACUCCUCUGAAUGAAUAGGAGGAUGGUACCAGCCAUGACAGAAACACCAGCAUUAGGUAUUACUACCU | 2.48
GAAAGUCUGAAAGUUGAUAAGCUAGUUCGACUCCUUUAUAAUGAGAACCUGACAUCAGAGGAGAGUGUGAUUUACCUGGGCUCAUAUAAUUAGAAGCAUCUCCAGGCCUG | 1.6
GCUGCCUGACCAUCCAGUGACAUGAUCCUGACCUUUACCUAGGAUUCCUCCUGCUCCAAACUUUGCCCAUCCUCUUUGCCCCCUCAGGAGUGCUGAGGGCCAGUGUUGAC | 0.827
UUCAUUGAAAAACCACACGGCAGAUGAACAACCUAUGGCCAAAACGUCCAAUAAAUGUCUCUACCGCAACCUGUCUGUGUCCUUGAUGCCUAGCGCUACCUUCCUCUGGU | 0.463
AGGCAGGACCUCUGAGCGAUGUAGGUUUUUUUAUUUUUAAGUUGUAUUUCUUUUCUCCCUGCUCUUGAGUGUCCUUGUCCUGCCCUCCCAUUCCAGCCGUGAUGAGCAUU | 0.987
UUUAUCAGCCAUGUUUGGUUGUAAAUGCUCGUGUGAUUUCCUACAGAAAUACUGCUCUGAAUAUUUUGUAAUAAAGGUCUUUGCACAUGUGACCACAUACGUGUUAGGAG | 0.821

Study 2 — technique: universal PBM; form: double-stranded DNA, one strand shown; medium: in vitro; concentration: not given; reading: higher = stronger binding
Target: Sal-like protein 4, full length isoform B (SALL4, Homo sapiens, UniProt Q9UJQ4-2, residues 1-616)
Notes: 8-mer, flanks averaged, mean of replicates
Strand | E-score
CGTTCCTA | 0.0467
AACCTATT | 0.101
ACATGAAA | 0.193
AAGTGCAC | 0.0147
ATAACTAA | 0.347
GATCTACC | -0.116
ACGGTAAT | 0.199
CTATTAAA | 0.227
AGGTCCAA | -0.0456
CAACTACG | 0.0797
CTTTCTTC | -0.0821
ATTCCGGG | -0.0977
ATCACCAG | 0.0006
GTAGATGA | 0.152
GCAGCTCA | -0.148
GGTGGTAA | 0.0487
GCCGGCCC | -0.39
CCTATTAG | 0.186
CTGTACAC | 0.0517

Study 3 — target: CCND2, cyclin fold, Cln2 fusion (human); technique: yeast growth competition, sequencing; medium: yeast; notes: weak parent motif; baseline: not given; reading: higher = stronger binding
Parent: PKN2 docking peptide (human); DSTVTKLDFDLEP; partner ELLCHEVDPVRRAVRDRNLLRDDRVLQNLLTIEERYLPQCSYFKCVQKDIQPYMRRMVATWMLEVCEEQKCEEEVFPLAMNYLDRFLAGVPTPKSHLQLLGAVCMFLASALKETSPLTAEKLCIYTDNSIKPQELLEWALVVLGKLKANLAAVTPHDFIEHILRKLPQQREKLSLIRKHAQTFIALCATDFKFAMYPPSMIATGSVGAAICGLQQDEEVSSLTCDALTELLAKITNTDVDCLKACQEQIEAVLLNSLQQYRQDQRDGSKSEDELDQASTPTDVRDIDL
Substitution | normalised enrichment score
DSTVTKLDFDLEA [P13A] | 0.0888
DSTVTKLDFDLAP [E12A] | 0.0246
DATVTKLDFDLEP [S2A] | -0.106
DSTVTKLAFDLEP [D8A] | -0.0997
DSTVTALDFDLEP [K6A] | 0.0575
DSTVTKLDFDAEP [L11A] | 0.058
ASTVTKLDFDLEP [D1A] | 0.224

Study 4 — technique: DHFR PCA, deep sequencing; medium: yeast; with: (+)-ABA 0.0091 µM; baseline: wild-type fitted maximum; reading: higher = stronger binding
Target: ABI1, truncated, D143A, DHFR fusion (Arabidopsis thaliana)
Notes: methotrexate growth selection, single substitutions
Parent: PYL1, truncated, DHFR fusion (Arabidopsis thaliana); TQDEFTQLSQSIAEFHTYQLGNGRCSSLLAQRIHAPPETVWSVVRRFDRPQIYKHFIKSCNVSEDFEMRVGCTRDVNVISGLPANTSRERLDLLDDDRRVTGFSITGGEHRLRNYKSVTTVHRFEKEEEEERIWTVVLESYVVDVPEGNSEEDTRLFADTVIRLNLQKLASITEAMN; partner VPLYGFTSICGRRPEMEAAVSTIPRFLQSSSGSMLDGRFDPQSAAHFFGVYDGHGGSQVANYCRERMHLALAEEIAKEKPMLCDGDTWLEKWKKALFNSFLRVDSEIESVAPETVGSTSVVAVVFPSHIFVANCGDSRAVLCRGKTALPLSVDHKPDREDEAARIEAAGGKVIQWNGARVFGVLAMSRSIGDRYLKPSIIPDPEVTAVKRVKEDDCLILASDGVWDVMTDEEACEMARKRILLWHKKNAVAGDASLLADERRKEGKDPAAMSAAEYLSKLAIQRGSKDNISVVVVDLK
Substitution | relative binding score [%]
E38D | 25.9
I33V | 3.49
S117C | 3.92
S87I | 62.1
K168L | -1.34
W134G | 13.3
F66T | 1.08
T135L | -9.43
E109W | -3.09
S59N | 13.9
A35Y | -3.56
D97K | 35.5
Q31I | 1.68
R123H | 35.9
S171L | 18.6
A30C | 9.05

Study 5 — target: CREBZF, bZIP domain (human); technique: DHFR protein complementation; medium: yeast; baseline: wild-type JUN-FOS pair; reading: higher = stronger binding
Notes: single substitutions, most at no-binding floor
Parent: JUN, bZIP domain (human); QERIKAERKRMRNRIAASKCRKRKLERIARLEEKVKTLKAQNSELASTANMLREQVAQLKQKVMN; partner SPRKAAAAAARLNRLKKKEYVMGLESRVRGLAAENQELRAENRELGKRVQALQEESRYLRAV
Substitution | binding fitness [natural log]
A46K | -1.38
A49E | -1.59
Q41A | -1.49
I28C | -1.49
L45A | -1.26
A57V | -1.51
L31G | -1.48
S43N | -1.53
E32T | -1.5
T48R | -1.51
S47N | -1.32
A49T | -1.41
R53V | -1.55
A29P | -1.25
V56Y | -1.47
N42P | -1.5
S47L | -1.41

Study 6 — technique: protein binding microarray; form: double-stranded DNA, one strand shown; medium: in vitro; concentration: not given; baseline: not given; reading: higher = stronger binding
Target: Histone acetyltransferase KAT6A, both winged helices, GST fusion (KAT6A, Homo sapiens, UniProt Q92794, residues 1-181)
Notes: 8-mer, flanks averaged, mean of 2 arrays, mostly near background
Target sequence (chain): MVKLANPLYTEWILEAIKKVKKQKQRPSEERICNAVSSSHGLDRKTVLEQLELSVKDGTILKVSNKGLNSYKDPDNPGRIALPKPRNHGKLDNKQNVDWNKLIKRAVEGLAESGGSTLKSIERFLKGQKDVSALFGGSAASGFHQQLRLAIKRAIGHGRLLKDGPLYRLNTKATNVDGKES
Strand | E-score
AAGCTAAA | -0.116
GGAGCCTA | -0.111
GGATTGGA | -0.173
CGTAGTTA | 0.143
CTCTTGTC | -0.144
CACCCTGA | -0.205
TAGACCGA | -0.00036
ATTTTAGA | -0.0172
CAGTAGCG | 0.223
AGGTTAAC | 0.0674
AAACAATC | 0.0309
AGACCGTC | 0.156
GGACCCGA | 0.0936
CAAATCGG | 0.146
AGTGATGC | -0.121
ATTTGCAC | -0.17
CTCTTAAG | -0.0893
ACTGGTAA | -0.101
ATCCCCAG | -0.286
CGCGACAG | 0.153
GCTTTGCC | -0.118
AAATGTCC | 0.0351
GAAAAAAC | 0.0535
ACTGCGAG | -0.0561

Other studies, line by line — technique: cross-linking MS
Substance | partner | test system | setting | endpoint | value
PPA1 (Homo sapiens, UniProt Q15181) | IQSEC1 (Homo sapiens, UniProt Q6DN90) | cell fractions | with: DSSO | cross-linked residues | K199 to S801
BMS1 (Homo sapiens, UniProt Q14692) | UTP11 (Homo sapiens, UniProt Q9Y3A2) | cell fractions | with: DSSO | cross-linked residues | K1147 to K26
TXNDC9 (Homo sapiens, UniProt O14530) | CCT3 (Homo sapiens, UniProt P49368) | cell fractions | with: DMTMM | cross-linked residues | K201 to E69
HMGB2 (Homo sapiens, UniProt P26583) | H2BC9 (Homo sapiens, UniProt Q93079) |  | hits only | interaction screen | cross-linked

A few entries again (study 6):
Strand | E-score
GGAGCCTA | -0.111
CTCTTAAG | -0.0893
TAGACCGA | -0.00036
AAGCTAAA | -0.116
AGGTTAAC | 0.0674
ACTGCGAG | -0.0561
GGACCCGA | 0.0936
ACTGGTAA | -0.101
ATTTTAGA | -0.0172
AAACAATC | 0.0309
ATCCCCAG | -0.286
CGTAGTTA | 0.143
